Assay results pooled from the literature.
A part holds a random share of what one study measured. “And” joins repeats or separate records; there may be more than shown.
Chain of UniProt P10721 (whole entry, unmodified, looked up): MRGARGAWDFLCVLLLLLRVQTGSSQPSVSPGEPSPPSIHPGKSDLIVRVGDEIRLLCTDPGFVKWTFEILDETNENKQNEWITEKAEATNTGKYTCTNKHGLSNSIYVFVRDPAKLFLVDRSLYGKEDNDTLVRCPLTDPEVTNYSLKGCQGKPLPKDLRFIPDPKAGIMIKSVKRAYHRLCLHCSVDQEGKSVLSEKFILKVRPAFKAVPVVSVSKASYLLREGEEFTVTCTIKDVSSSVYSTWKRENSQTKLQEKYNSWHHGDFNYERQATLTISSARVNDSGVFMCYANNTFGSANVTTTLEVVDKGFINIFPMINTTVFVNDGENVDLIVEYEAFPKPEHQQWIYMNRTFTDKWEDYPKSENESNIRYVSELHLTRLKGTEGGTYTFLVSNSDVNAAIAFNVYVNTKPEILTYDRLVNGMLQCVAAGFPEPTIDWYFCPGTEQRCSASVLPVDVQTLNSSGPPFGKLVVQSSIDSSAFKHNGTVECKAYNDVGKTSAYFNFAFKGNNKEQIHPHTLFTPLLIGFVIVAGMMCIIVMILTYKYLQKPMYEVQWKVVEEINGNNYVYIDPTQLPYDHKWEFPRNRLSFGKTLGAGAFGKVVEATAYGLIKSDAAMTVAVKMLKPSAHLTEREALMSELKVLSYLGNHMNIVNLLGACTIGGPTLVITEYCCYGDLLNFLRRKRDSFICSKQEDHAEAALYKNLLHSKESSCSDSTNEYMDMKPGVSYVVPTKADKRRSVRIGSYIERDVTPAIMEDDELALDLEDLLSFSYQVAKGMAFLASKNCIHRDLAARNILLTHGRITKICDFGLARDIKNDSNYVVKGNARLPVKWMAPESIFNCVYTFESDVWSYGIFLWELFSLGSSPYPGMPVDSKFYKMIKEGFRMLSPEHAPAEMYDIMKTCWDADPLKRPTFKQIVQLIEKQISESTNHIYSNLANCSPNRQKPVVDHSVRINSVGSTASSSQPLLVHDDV
Chain of UniProt P51812 (whole entry, looked up): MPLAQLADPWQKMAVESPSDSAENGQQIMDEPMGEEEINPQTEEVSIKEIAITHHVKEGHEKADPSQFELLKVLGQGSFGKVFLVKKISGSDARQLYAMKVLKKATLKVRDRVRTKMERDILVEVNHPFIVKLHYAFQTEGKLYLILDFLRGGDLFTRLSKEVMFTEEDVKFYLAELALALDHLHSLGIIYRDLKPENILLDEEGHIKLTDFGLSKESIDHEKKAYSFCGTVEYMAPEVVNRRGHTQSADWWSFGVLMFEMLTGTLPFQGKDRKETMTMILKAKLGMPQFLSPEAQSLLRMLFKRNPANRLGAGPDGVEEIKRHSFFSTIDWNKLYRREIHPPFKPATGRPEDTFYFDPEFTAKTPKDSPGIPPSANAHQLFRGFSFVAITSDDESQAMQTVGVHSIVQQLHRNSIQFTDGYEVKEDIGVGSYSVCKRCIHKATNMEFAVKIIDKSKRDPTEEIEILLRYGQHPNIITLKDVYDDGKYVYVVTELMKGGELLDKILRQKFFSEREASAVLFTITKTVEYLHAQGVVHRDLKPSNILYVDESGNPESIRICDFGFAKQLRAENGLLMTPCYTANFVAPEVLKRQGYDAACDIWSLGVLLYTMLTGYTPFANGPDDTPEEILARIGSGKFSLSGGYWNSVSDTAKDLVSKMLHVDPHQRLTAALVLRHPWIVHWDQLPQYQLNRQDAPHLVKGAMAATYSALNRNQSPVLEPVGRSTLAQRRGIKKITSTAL
Chain of UniProt P04049 (whole entry, looked up): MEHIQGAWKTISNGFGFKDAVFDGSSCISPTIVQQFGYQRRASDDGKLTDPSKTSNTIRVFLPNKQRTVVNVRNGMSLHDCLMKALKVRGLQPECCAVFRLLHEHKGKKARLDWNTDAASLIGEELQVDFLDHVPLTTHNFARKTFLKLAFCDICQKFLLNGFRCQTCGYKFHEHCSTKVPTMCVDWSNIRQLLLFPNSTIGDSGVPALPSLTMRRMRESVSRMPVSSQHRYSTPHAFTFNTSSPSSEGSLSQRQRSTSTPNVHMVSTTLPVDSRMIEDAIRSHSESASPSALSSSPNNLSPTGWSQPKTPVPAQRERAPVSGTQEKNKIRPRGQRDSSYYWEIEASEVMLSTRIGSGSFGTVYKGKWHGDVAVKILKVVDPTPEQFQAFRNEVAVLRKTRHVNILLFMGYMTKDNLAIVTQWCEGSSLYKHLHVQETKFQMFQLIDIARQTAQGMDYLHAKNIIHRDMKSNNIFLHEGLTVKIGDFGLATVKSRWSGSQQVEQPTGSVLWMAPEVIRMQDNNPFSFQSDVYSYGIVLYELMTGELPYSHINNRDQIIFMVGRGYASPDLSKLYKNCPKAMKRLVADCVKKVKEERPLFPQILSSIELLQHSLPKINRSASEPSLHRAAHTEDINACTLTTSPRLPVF
Chain of UniProt Q9HAZ1 (whole entry, looked up): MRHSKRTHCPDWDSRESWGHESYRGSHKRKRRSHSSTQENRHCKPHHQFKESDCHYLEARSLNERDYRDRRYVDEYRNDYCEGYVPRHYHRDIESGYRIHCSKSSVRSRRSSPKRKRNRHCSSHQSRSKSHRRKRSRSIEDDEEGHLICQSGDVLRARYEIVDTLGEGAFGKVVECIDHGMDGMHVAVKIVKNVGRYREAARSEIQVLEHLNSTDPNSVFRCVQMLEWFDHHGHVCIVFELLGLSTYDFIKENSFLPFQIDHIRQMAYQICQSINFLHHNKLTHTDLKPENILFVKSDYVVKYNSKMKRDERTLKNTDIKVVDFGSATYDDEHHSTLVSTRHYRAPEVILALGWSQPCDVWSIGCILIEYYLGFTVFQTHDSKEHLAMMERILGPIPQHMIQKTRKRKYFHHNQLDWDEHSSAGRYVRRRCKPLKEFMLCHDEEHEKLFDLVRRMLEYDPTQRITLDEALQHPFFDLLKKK
Chain of UniProt O14733 (whole entry, looked up): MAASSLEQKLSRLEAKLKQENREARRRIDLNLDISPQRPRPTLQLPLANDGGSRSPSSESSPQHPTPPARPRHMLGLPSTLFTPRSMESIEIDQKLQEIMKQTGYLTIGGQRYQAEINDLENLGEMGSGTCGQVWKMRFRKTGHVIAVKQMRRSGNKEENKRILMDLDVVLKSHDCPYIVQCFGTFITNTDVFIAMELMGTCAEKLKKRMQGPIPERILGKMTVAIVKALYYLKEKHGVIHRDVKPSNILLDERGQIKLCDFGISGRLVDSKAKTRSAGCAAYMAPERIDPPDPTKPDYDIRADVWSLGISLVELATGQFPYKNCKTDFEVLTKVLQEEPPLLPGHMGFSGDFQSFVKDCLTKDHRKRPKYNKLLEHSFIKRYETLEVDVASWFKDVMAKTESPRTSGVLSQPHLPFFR

Set 1
Target: Bromodomain-containing protein 4, BD1 (BRD4, Homo sapiens, UniProt O60885)
Effect on: acetyl-histone H4 peptide binding
Method: AlphaScreen displacement
Tested at: 50 µM
| Structure (SMILES) | inhibition |
| --- | --- |
| O=C1NC(=NCc2cccs2)S/C1=C\c1ccc2ncccc2c1 | 27.1% |
| CCN(CC)CCNc1ccc(NCCN(CC)CC)c2c1C(=O)c1ccccc1C2=O | 64.5% |
| O=C1NC(=O)C(=Cc2ccc(-c3ccc(Cl)c(Cl)c3)o2)S1 | 44.6% |
| O=C(O)c1ccccc1C=NNc1ncc(C(F)(F)F)cc1Cl | 3.55% |
| COc1ccc(Nc2ncc(F)c(Nc3ccc(OC)c(Cl)c3)n2)cc1Cl | 24.7% |
| Cc1c(C(=O)N2CCCCC2)sc2nc[nH]c(=O)c12 | 3.8% |
| COc1ccc(-c2cc3nccn3c(Nc3ncccc3C(N)=O)n2)cc1OC | 16.8% |
| CCN1C(=CC(C)=O)Sc2ccc(OC)cc21 | 23.9% |
| Clc1ccc(CNc2cncc(-c3ccsc3)c2)cc1 | 13.8% |
| Nc1nccc(-c2c(-c3ccc(F)cc3)ncn2C2CCCCC2)n1 | 15.8% |
| CS(=O)(=O)O.Cn1cc(C2=C(c3cn(CCCSC(=N)N)c4ccccc34)C(=O)NC2=O)c2ccccc21 | 97.4% |
| N#CC(=Cc1c(F)cccc1F)c1nc2ccccc2s1 | 22.9% |

Set 2
Target: Vascular endothelial growth factor receptor 3 (FLT4, Homo sapiens, UniProt P35916)
Chain of UniProt P35916 (whole entry, looked up): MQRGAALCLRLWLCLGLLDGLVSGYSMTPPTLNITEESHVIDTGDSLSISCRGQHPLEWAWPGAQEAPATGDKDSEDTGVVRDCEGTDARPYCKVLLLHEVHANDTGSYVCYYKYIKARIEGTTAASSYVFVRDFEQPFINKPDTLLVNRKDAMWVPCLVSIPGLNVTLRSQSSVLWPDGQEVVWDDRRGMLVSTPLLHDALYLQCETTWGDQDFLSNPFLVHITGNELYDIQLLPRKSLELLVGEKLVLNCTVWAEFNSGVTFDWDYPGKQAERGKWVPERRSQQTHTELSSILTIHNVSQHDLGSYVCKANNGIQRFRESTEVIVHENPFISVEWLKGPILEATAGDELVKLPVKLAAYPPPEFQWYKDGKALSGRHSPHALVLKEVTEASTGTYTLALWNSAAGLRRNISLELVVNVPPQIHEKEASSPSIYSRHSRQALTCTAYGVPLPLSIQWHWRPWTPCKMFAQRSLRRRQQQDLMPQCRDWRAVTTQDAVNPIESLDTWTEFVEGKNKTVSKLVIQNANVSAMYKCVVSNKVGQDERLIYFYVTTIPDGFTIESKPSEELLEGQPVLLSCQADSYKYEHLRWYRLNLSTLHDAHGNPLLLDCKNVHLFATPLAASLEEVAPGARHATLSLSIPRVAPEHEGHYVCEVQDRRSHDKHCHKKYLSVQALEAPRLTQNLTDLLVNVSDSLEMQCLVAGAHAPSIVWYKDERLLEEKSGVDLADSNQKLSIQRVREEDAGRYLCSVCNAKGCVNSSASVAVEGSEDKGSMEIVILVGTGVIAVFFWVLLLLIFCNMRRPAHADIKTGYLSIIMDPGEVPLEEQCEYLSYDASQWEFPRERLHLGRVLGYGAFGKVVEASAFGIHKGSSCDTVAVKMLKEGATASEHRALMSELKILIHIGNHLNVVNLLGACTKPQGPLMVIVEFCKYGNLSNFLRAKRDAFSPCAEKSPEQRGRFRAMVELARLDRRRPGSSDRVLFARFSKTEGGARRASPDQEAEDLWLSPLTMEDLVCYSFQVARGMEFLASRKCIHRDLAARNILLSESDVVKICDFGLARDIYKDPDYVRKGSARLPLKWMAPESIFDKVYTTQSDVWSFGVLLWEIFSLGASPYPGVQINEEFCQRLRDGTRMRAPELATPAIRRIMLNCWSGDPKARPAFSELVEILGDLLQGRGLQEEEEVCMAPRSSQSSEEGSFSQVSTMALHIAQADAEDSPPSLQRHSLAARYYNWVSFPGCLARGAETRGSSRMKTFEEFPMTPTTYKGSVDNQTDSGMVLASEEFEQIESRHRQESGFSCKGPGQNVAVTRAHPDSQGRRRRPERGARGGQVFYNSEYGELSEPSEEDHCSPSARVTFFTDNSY
Effect on: enzyme activity
Action: inhibitor
Tested at: 0.5 µM
Reference: control
| SMILES | remaining activity [%] |
| --- | --- |
| Cc1ccc(NC2=CC(=O)c3sc(C)nc3C2=O)cc1 | 95.7 |
| CC(C)(C)n1nc(Cc2cccc3ccccc23)c2c(N)ncnc21 | 79.8 |
| CCc1[nH]c(-c2ccc(OC)cc2)nc1-c1ccncc1 | 123 |
| COc1cc(Nc2c(C#N)cnc3cc(OCCCN4CCN(C)CC4)c(OC)cc23)c(Cl)cc1Cl | 44.1 |
| CC#CC(=O)Nc1cc2c(Nc3ccc(F)c(Cl)c3)ncnc2cn1 | 92.8 |
| O=C1NC(=O)C(c2c[nH]c3ccccc23)=C1c1c[nH]c2ccccc12 | 35.2 |
| Oc1ccc(Nc2nc(-c3ccc(Cl)cc3)cs2)cc1 | 101 |
| Nc1ncnc2c1cnn2-c1ccccc1 | 108 |
| Fc1ccc(-c2nc3n(c2-c2ccncc2)CCS3)cc1 | 112 |
| COc1ccc(S(=O)(=O)N(CCO)c2ccccc2CN(C)CC=Cc2ccc(Cl)cc2)cc1 | 91 |
| O=C1Cc2c([nH]c3ccc([N+](=O)[O-])cc23)-c2ccccc2N1 | 77.8 |
| O=S(=O)(NCCNC/C=C/c1ccc(Br)cc1)c1cccc2cnccc12 | 108 |
| CC[n+]1c(/C=C/N(C)c2ccccc2)n(-c2ccccc2)c2ccc(-c3nc4ccccc4s3)cc21 | 90.9 |
| CSc1nc(-c2ccnc(N[C@@H](C)c3ccccc3)c2)c(-c2ccc(F)cc2)[nH]1 (racemic) | 91.3 |
| Cc1cncc2cccc(S(=O)(=O)N3CCCN(C(=O)CN)C[C@@H]3C)c12 | 113 |
| N#CC(=C(N)Sc1ccc(N)cc1)c1ccccc1C(F)(F)F | 99.8 |
| Nc1nc(Nc2ccc(S(N)(=O)=O)cc2)nn1C(=O)c1c(F)cccc1F | 38 |
| Nc1nccc(-c2c(-c3ccc(F)cc3)ncn2C2CCNCC2)n1 | 116 |
| Cc1cc(Nc2nc(-c3ccccc3)nc3ccccc23)n[nH]1 | 44.9 |
| NC(=O)c1ccc(N(C(N)=O)c2c(F)cccc2F)nc1-c1ccc(F)cc1F | 97.5 |
| CCCC(=O)Oc1ccc2[nH]c(C(=O)c3cc4ccccc4[nH]3)cc2c1 | 98.2 |
| CC(=O)c1ccc(N2CCOCC2)cc1O | 112 |

Set 3
Target: Eukaryotic initiation factor 4A-I (EIF4A1, Homo sapiens, UniProt P60842)
Chain of UniProt P60842 (whole entry, looked up): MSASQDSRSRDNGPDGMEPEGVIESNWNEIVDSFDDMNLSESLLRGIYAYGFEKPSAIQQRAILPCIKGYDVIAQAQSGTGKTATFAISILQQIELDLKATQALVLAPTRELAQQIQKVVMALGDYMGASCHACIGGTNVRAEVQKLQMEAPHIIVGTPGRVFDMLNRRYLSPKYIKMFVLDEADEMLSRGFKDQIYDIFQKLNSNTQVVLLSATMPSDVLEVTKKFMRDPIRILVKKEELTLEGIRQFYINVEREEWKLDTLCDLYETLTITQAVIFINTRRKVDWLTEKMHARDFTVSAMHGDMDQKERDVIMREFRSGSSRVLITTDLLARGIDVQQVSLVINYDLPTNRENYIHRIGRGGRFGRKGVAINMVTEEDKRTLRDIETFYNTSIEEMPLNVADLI
Effect on: RNA clamping
Method: fluorescence polarization
Tested at: concentration not given
Notes: mean of two replicates
Added: FAM-labelled poly r(AG)8 RNA
| Compound | fluorescence polarization change |
| --- | --- |
| COc1ccc([C@]23Oc4cc(OC)cc(OC)c4[C@@]2(O)c2nc(-c4ccc(C)cc4)[nH]c(=O)c2[C@@H]3c2ccccc2)cc1 | 34 mP |
| COc1ccc([C@@]23Oc4cc(OC)cc(OC)c4[C@]2(O)[C@H](O)[C@H](C(=O)c2ccco2)[C@H]3c2ccccc2OC)cc1 | 33 mP |
| COCCN[C@@]12C(=O)C[C@@H](c3ccccc3)[C@]1(c1ccc(OC)cc1)Oc1cc(OC)cc(OC)c12 | -5.6 mP |
| C#CCOCCOCCNC(=O)CCCn1c(-c2ccccc2)nc2c(c1=O)[C@@H](c1ccccc1)[C@]1(c3ccc(OC)cc3)Oc3cc(OC)cc(OC)c3[C@]21O | 21 mP |
| C#CCCC1(CCOc2cc(OC)c3c(c2)O[C@@]2(c4ccc(OC)cc4)[C@H](c4ccccc4)[C@@H](C(=O)c4ccco4)[C@@H](O)[C@@]32O)N=N1 | 1.8 mP |
| COC(=O)C1=C(OS(=O)(=O)c2ccc(C)cc2)[C@@]2(O)c3c(OC)cc(OC)cc3O[C@@]2(c2ccc(OC)cc2)[C@@H]1c1ccccc1 | 8.9 mP |
| COc1ccc([C@@]23Oc4cc(OC)cc(OC)c4[C@]2(O)c2nc(-c4ccccc4)nc(OC)c2[C@H]3c2ccccc2)cc1 | -0.6 mP |
| COC(=O)[C@H]1C(=O)[C@@]2(NCC3CCOCC3)c3c(OC)cc(OC)cc3O[C@@]2(c2ccc(OC)cc2)[C@@H]1c1ccccc1 | -5.6 mP |
| COc1ccc([C@]23Oc4cc(OC)cc(OC)c4[C@](O)([C@H](C(=O)NCCCC(OC)OC)[C@H]2c2ccccc2)[C@@H]3O)cc1 | 0.9 mP |
| COc1ccc([C@@]23Oc4cc(OC)cc(OC)c4[C@]2(O)[C@@H](O)[C@H](C(=O)c2ccco2)[C@H]3c2ccccc2)cc1 | 27.4 mP |
| COC(=O)[C@H]1C(=O)[C@@]2(NCCc3scnc3C)c3c(OC)cc(OC)cc3O[C@@]2(c2ccc(OC)cc2)[C@@H]1c1ccccc1 | -5.8 mP |
| COc1ccc([C@@]23Oc4cc(OC)cc(OC)c4[C@]2(O)[C@H](O)[C@H](C(=O)NOCc2ccccc2)[C@H]3c2ccccc2)cc1 | 7.1 mP |
| COC(=O)[C@@H]1[C@@H](O)[C@@]2(O)c3c(OC)cc(F)cc3O[C@@]2(c2ccc(Cl)cc2)[C@H]1c1ccccc1 | 21.5 mP |
| O[C@H]1C[C@@H](c2ccccc2)[C@]2(c3ccc(Cl)cc3)Oc3cc(OCCN4CCCC4)ccc3[C@]12O | 82.5 mP |
| CCCC1=N[C@@]2(O)[C@H](C(=O)OC)[C@@H](c3ccccc3)[C@]3(c4ccc(OC)cc4)Oc4cc(OC)cc(OC)c4[C@]23N1 | 66 mP |
| COC(=O)[C@@H]1[C@@H](O)[C@@]2(O)c3c(OC)cc(OS(=O)(=O)c4ccc(C)cc4)cc3O[C@@]2(c2ccc(OC)cc2)[C@H]1c1ccccc1 | 3 mP |
| COc1ccc([C@@]23Oc4cc(OC)cc(OC)c4[C@]2(O)c2nc(-c4cccc(OC)c4)[nH]c(=O)c2[C@H]3c2ccccc2)cc1 | 18.5 mP and 40.7 mP |
| CCCN(CCC)[C@@]12C(=O)[C@H](C(=O)OC)[C@@H](c3ccccc3)[C@]1(c1ccc(OC)cc1)Oc1cc(OC)cc(OC)c12 | 4.2 mP |

Set 4
SMILES: O=C(Nc1ccc(Oc2ccc(F)cc2)cc1)N1CCc2ncccc2[C@H]1c1ccc(F)cc1
Effect on: cell-free assay
Method: competition with immobilised ligand
Tested at: 1 µM
| target | remaining binding [%] |
| --- | --- |
| Dual specificity protein kinase CLK4 (CLK4, Homo sapiens, UniProt Q9HAZ1) | 100 |
| Hepatocyte growth factor receptor (MET, Homo sapiens, UniProt P08581) | 100 |
| Serine/threonine-protein kinase PAK 2 (PAK2, Homo sapiens, UniProt Q13177) | 52 |
| cGMP-dependent protein kinase 1 (PRKG1, Homo sapiens, UniProt Q13976) | 91 |
| Citron Rho-interacting kinase (CIT, Homo sapiens, UniProt O14578) | 91 |
| Ribosomal protein S6 kinase alpha-4, C-terminal kinase domain (RPS6KA4, Homo sapiens, UniProt O75676) | 73 |
| Phosphatidylinositol 4,5-bisphosphate 3-kinase catalytic subunit delta isoform (PIK3CD, Homo sapiens, UniProt O00329) | 93 |
| Epidermal growth factor receptor (EGFR, Homo sapiens, UniProt P00533, L861Q) | 83 |
| Mast/stem cell growth factor receptor Kit (KIT, Homo sapiens, UniProt P10721, D816V) | 100 |
| Phosphatidylinositol 4,5-bisphosphate 3-kinase catalytic subunit alpha isoform (PIK3CA, Homo sapiens, UniProt P42336, H1047Y) | 100 |
| Epidermal growth factor receptor (EGFR, Homo sapiens, UniProt P00533, G719S) | 74 |
| Serine/threonine-protein kinase Nek10 (NEK10, Homo sapiens, UniProt Q6ZWH5) | 100 |
| Dual specificity mitogen-activated protein kinase kinase 7 (MAP2K7, Homo sapiens, UniProt O14733) | 100 |
| Serine/threonine-protein kinase LATS2 (LATS2, Homo sapiens, UniProt Q9NRM7) | 100 |
| RAF proto-oncogene serine/threonine-protein kinase (RAF1, Homo sapiens, UniProt P04049) | 100 |
| Ribosomal protein S6 kinase alpha-3, N-terminal kinase domain (RPS6KA3, Homo sapiens, UniProt P51812) | 84 |
| Tyrosine-protein kinase ABL1, non-phosphorylated (ABL1, Homo sapiens, UniProt P00519, H396P) | 98 |
| Serine/threonine-protein kinase 38 (STK38, Homo sapiens, UniProt Q15208) | 99 |
| Serine/threonine-protein kinase BRSK1 (BRSK1, Homo sapiens, UniProt Q8TDC3) | 100 |
| Rho-associated protein kinase 1 (ROCK1, Homo sapiens, UniProt Q13464) | 100 |
| Protein kinase C delta type (PRKCD, Homo sapiens, UniProt Q05655) | 100 |
| Cyclin-dependent kinase-like 5 (CDKL5, Homo sapiens, UniProt O76039) | 100 |
| Mitogen-activated protein kinase kinase kinase 14 (MAP3K14, Homo sapiens, UniProt Q99558) | 61 |
| Mast/stem cell growth factor receptor Kit (KIT, Homo sapiens, UniProt P10721, T670I/V559D) | 85 |
| Tyrosine-protein kinase ABL1, phosphorylated (ABL1, Homo sapiens, UniProt P00519, Q252H) | 88 |

A few entries again (set 3):
| Compound | fluorescence polarization change |
| --- | --- |
| C#CCOCCOCCNC(=O)CCCn1c(-c2ccccc2)nc2c(c1=O)[C@@H](c1ccccc1)[C@]1(c3ccc(OC)cc3)Oc3cc(OC)cc(OC)c3[C@]21O | 21 mP |
| COC(=O)C1=C(OS(=O)(=O)c2ccc(C)cc2)[C@@]2(O)c3c(OC)cc(OC)cc3O[C@@]2(c2ccc(OC)cc2)[C@@H]1c1ccccc1 | 8.9 mP |
| C#CCCC1(CCOc2cc(OC)c3c(c2)O[C@@]2(c4ccc(OC)cc4)[C@H](c4ccccc4)[C@@H](C(=O)c4ccco4)[C@@H](O)[C@@]32O)N=N1 | 1.8 mP |
| COc1ccc([C@]23Oc4cc(OC)cc(OC)c4[C@@]2(O)c2nc(-c4ccc(C)cc4)[nH]c(=O)c2[C@@H]3c2ccccc2)cc1 | 34 mP |
| COc1ccc([C@@]23Oc4cc(OC)cc(OC)c4[C@]2(O)[C@@H](O)[C@H](C(=O)c2ccco2)[C@H]3c2ccccc2)cc1 | 27.4 mP |
| CCCN(CCC)[C@@]12C(=O)[C@H](C(=O)OC)[C@@H](c3ccccc3)[C@]1(c1ccc(OC)cc1)Oc1cc(OC)cc(OC)c12 | 4.2 mP |
| COc1ccc([C@@]23Oc4cc(OC)cc(OC)c4[C@]2(O)c2nc(-c4cccc(OC)c4)[nH]c(=O)c2[C@H]3c2ccccc2)cc1 | 18.5 mP and 40.7 mP |
| COCCN[C@@]12C(=O)C[C@@H](c3ccccc3)[C@]1(c1ccc(OC)cc1)Oc1cc(OC)cc(OC)c12 | -5.6 mP |
| COC(=O)[C@H]1C(=O)[C@@]2(NCCc3scnc3C)c3c(OC)cc(OC)cc3O[C@@]2(c2ccc(OC)cc2)[C@@H]1c1ccccc1 | -5.8 mP |
| O[C@H]1C[C@@H](c2ccccc2)[C@]2(c3ccc(Cl)cc3)Oc3cc(OCCN4CCCC4)ccc3[C@]12O | 82.5 mP |
| COC(=O)[C@H]1C(=O)[C@@]2(NCC3CCOCC3)c3c(OC)cc(OC)cc3O[C@@]2(c2ccc(OC)cc2)[C@@H]1c1ccccc1 | -5.6 mP |
